Results pooled from the literature.
Numbered parts are unrelated; each lists some results of a single study. Changes are numbered by the printed parent chain.

Sample 1
Target: RING finger protein unkempt homolog, zinc fingers 1-6, GST-SBP tag (UNK, Homo sapiens, UniProt Q9C0B0, residues 30-357)
UniProt Q9C0B0, sequence (30-357, looked up): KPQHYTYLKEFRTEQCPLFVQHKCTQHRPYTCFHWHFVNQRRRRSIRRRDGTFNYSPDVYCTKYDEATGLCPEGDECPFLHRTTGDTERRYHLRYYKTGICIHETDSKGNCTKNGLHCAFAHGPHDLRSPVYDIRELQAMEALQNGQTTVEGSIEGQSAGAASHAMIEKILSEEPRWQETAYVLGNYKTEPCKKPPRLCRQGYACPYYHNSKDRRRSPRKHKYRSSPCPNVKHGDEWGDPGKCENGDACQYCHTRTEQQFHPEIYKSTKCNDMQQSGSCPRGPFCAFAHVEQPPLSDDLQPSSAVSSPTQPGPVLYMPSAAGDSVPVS
Method: RNA Bind-n-Seq
Form: RNA
Matrix: in vitro
Tested at: not given
Setting: RNA with constant flanks, human and mouse sites, ends assumed
Reference: input RNA pool
Direction: higher = stronger binding
For `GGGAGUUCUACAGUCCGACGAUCGUAGAUGGUACCUUUCUAGUGUGGCAUGUGAAGUAUUUGGAUGAAUAUAAUCCUGGAAUAUUUAGACAAGUUCAGGUUUCUUUUUCUUCUCGGAUUCCUGUUGCAUUUCCCUCUGGUGAUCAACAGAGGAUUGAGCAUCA`, the bound/input enrichment was 0.424 ratio.
The bound/input enrichment of `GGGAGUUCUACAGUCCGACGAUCGCUGCUUUUCACAGUUUAGUGGGUUUGGCAGCUGUACUUACUUGCAUAGCUGAGUACAUUAUAGAAUAUCCACAUUUUGCUACGGAUGCAGCAGCAAAUCUCACCAAGAUUGUGGCCUACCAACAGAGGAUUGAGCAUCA` is reported as 0.873 ratio.
With `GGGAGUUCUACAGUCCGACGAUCAUUUUUUUAUUUGUUUUCAGGGGGGUUUUUUGGGGGAAAAUUUUUUUAAAUGGAAGCUUCUAGCAAGCCCCCCACCCCAAUCAACCUCUAUGCUUUCUUCUUAAAAAAAAAAAAAAAGGACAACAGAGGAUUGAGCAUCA` the bound/input enrichment was 0.459 ratio.
`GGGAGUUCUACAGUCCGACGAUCGAGGAGAGUCUCACUGUAGAAAGUACUGACUUGAACGAUGAAAGAACAGGGGAGAGUCUCACUGUAGAAAGUACUGACUUGAACGAUUCUGCAGUAAACAUAGAAGCAUUUGUAGAGAGCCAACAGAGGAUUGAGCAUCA` gave a bound/input enrichment of 4.04 ratio.
`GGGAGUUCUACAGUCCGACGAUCGUCUUCACGUGCUUCCGUUGUGCAGCUGCCUGGUGUCGGCCGGAGCAGGGCGCAGUGAUAGCUUUUCAUCAUGAAUCGGAAGAAGGUGGAUAACCGAAUUCGAAUUCUCAUUGAGAAUGGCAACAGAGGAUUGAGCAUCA` gave a bound/input enrichment of 0.145 ratio.
`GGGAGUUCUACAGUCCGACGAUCACAGAUGGGAAACACGGACUUAAGUGUAUGUUUCAUAUACUGACAGUGGGACAUGGUUCUAUAGAUCAAUUAUAAUAAUAAAUAUUUUAAUUUAUCAUAAUUUAUAAAAGCUUUGUUGUUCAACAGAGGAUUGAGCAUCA` gave a bound/input enrichment of 15.7 ratio.
`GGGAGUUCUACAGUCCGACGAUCCAAGGCAUCUGUCCUGAAAGCUGUUAAUUUAUGGUCUAGCAGAUUUAUAUUAUAUGCAGAUAAUAAUUAACUGGGGAUAAAAGAAUGGCAAGGGGUGACACAAAGUAGCAAACUGAAUACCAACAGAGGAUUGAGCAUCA` gave a bound/input enrichment of 0.443 ratio.
`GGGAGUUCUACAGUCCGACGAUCUCUCAGCUAAUGGUAUAAAUGGAUGGUCAGAAUUGAGAUGAAGGGUUUCUAAGAGAGAUAUACAUAAGAAUUGAUCCUUUAAUCUCUGCUGAAGUGAGGGAGUCUCUGGUUUCUAGGGCACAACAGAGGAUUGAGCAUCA` has a bound/input enrichment of 0.701 ratio.

Sample 2
Target: Ras GTPase-activating protein-binding protein 1, RRM domain (G3BP1, Homo sapiens, UniProt Q13283)
UniProt Q13283, sequence (whole entry, looked up): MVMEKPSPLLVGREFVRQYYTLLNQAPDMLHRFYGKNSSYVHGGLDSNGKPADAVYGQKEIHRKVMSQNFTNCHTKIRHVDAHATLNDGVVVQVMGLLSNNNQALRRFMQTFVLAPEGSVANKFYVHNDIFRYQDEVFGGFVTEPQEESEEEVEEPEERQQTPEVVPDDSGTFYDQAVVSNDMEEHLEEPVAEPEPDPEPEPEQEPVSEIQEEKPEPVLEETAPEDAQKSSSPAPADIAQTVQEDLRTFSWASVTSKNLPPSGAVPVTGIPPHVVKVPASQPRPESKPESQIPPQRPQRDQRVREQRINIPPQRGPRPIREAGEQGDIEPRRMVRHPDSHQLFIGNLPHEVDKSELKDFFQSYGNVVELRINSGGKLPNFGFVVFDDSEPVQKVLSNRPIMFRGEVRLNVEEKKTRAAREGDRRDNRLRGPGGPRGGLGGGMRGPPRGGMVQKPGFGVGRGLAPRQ
Method: RNA Bind-n-Seq
Form: RNA
Matrix: in vitro
Tested at: 1 µM
Setting: whole 134-nt RNA, ends assumed
With: 150 mM KCl
Reference: input library
Direction: higher = stronger binding
The log2 enrichment of `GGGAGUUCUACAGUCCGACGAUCCCUGUGCUACACAUCGUAUGUACCGAAUCGGCCCCCCCGGGCCCCCCCGGCCCCCCCGGGGAAAGUAUUAUGUUACGCCGUUCGGAUCUGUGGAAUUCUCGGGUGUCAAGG` is reported as -0.519.
`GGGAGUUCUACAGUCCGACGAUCUUCAAAACAGAAUCCUUCCAGUCCUCUUCAGCGUUUAAUUCCAGGCUCAAACUUGGACAGUGAACCCAGAAUUCAAACAGAUAUACUAAAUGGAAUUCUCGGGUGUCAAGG` gave a log2 enrichment of -0.000203.
With `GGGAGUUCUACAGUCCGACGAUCGCAGGAAGUAAAAACAAAUGGAAAUGCUUCGGAUAGUGGCAGGGGUGGGAGUUGCUAAGGAAAGGGUGGGAUGGGAGUGGGUAAAGAGUUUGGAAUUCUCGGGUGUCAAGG` the log2 enrichment was 2.07.
For `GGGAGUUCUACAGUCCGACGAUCUGGCCCUGGUGGCAUGCGGGGAGGAAGAGGUGGCGUCAUGGAUCGUGGUGGUCCCGGUGGAAUGUUCAGAGGUGGCCGUGGUGGAGACAGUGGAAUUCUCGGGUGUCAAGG`, the log2 enrichment was 1.11.
For `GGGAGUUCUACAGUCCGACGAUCUUUCCCCUGGAGGGCGCCUCCAUCCUUGGAGGCCUAGUGCCGUCGGAGAGAGAGCGGGAGCCGCGGACAGAGACGCGUGCGCAAUUCGGAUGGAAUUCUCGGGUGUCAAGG`, the log2 enrichment was -1.43.
The log2 enrichment of `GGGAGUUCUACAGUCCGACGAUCCCUGUGCUACACAUCGUAUGUACCGAAUCGGGGAAAAAAGGGGAAAAAAGGAAAAAAGGGAAAGUAUUAUGUUACGCCGUUCGGAUCUGCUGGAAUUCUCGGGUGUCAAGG` is reported as -0.00977.
`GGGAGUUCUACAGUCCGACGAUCCACAGACAACACGCACCCACACAGACACAGAGGGAAGGGGUUGGGAUGGGUACAGGGUGCACAGCAGGGCGGGGUAGGACCCCAGCCCCUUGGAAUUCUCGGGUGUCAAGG` has a log2 enrichment of -0.0615.
`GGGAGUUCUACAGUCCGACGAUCAGUCCUGUGCUACACAUCGUAUGUACCGAAUCGGGGUUUUUGGGGAAAGGGGUGGGGAAAGUAUUAUGUUACGCCGUUCGGAUCUGCACUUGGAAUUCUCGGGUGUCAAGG` gave a log2 enrichment of 1.03.

Mixed results
P1: viral docking peptide; KKAKRRLFTISDS; partner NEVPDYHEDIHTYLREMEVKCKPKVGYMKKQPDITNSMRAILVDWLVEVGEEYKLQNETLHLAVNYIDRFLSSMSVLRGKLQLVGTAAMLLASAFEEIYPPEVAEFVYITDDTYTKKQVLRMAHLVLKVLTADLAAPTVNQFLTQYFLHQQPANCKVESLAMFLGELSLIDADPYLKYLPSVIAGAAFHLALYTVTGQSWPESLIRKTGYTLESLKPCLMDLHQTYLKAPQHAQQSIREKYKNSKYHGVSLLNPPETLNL
P2: PafA, mature enzyme, eGFP fusion (Elizabethkingia meningoseptica, UniProt Q9KJX5); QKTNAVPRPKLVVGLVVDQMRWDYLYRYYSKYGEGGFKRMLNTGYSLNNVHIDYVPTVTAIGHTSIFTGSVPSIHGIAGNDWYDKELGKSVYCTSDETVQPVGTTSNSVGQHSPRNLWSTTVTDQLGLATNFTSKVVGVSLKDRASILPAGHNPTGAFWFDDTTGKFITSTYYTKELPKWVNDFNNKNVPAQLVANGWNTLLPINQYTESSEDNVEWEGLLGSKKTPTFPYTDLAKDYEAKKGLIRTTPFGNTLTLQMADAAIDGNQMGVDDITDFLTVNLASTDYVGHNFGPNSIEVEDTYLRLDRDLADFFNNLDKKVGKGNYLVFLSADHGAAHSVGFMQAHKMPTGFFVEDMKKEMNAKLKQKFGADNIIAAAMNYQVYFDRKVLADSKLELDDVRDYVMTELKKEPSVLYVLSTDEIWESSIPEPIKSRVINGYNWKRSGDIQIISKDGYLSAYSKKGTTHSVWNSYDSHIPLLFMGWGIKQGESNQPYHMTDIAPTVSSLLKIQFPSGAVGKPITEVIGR
For `P1 S13A`, “normalised enrichment score” read 4.86 (CCNA2, cyclin fold, Cln2 fusion (human); yeast growth competition, sequencing; yeast; strong parent motif; reference: not given, higher = stronger binding).
For `P2 R39G`, “oxyanion analog dissociation constant” read 1430 nM (tungstate, free oxyanion; microfluidic competitive inhibition; in vitro, cell-free expressed; not given, derived from inhibition constants, unchanged parent 2230 nM; lower = stronger binding).

For quick reference, copied from above (sample 2):
For `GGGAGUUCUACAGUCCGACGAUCUGGCCCUGGUGGCAUGCGGGGAGGAAGAGGUGGCGUCAUGGAUCGUGGUGGUCCCGGUGGAAUGUUCAGAGGUGGCCGUGGUGGAGACAGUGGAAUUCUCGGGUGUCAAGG`, the log2 enrichment was 1.11.
`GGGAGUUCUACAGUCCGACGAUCCACAGACAACACGCACCCACACAGACACAGAGGGAAGGGGUUGGGAUGGGUACAGGGUGCACAGCAGGGCGGGGUAGGACCCCAGCCCCUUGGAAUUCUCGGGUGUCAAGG` has a log2 enrichment of -0.0615.
